Published values pooled from the literature.
Protocols differ between the studies behind these lines. Values joined by “and” are separate records of one study, mostly repeats; a detail may differ. Numbers after ± are the reported error.
UniProt P21709, sequence (whole entry, looked up): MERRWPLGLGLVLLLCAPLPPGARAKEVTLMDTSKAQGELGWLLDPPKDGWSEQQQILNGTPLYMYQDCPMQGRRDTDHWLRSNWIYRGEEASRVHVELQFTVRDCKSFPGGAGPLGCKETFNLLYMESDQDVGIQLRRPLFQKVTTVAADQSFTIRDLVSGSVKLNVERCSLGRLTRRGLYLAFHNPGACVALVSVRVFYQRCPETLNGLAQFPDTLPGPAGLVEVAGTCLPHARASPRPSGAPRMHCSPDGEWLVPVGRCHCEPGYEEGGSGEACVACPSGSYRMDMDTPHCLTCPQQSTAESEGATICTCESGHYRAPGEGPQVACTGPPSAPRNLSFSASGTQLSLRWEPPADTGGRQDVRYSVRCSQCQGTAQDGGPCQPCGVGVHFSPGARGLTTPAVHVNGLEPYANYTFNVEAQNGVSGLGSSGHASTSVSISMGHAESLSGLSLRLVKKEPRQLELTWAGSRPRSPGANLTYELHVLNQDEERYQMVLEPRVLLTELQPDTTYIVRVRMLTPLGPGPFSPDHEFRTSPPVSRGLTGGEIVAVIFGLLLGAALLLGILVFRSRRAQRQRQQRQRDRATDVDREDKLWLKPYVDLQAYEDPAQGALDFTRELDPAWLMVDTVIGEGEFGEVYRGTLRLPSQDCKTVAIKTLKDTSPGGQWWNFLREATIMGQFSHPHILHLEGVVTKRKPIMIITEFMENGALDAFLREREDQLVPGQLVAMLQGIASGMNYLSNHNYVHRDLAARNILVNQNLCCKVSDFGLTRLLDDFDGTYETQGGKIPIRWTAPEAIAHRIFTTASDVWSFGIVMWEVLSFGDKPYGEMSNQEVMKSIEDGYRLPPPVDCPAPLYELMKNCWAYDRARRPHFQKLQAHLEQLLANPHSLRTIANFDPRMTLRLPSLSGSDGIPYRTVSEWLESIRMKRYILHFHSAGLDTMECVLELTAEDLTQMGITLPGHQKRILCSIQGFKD

| SMILES | target or system | assay | system | conditions | scale | quantity | result |
| --- | --- | --- | --- | --- | --- | --- | --- |
| NCCOc1cc(NC(=O)c2cc(OCc3cn([C@H]4O[C@@H](CO)[C@H](O)[C@@H](O)[C@@H]4O)nn3)cc(C(=O)Nc3cc(OCCN)c4ccccc4n3)n2)nc2ccccc12 | K-ras G-quadruplex DNA | FRET melting |  | 1 µM, pH 7.4, with: 60 mM potassium |  | ΔTm | 10.4 ± 0.4 K |
| C[n+]1cc(/C=N/NC(=O)N/N=C/c2cc3ccccc3[n+](C)c2)cc2ccccc21 | telomeric G4 DNA hybrid-2 | FRET melting |  | 1 µM, DNA 0.2 µM, with: duplex DNA competitor 10 µM |  | ΔTm | 5.9 ± 0.4 °C |
| C=CC(=O)N1[C@@H](c2ccc3c(c2)OCO3)c2[nH]c3ccccc3c2C[C@H]1C(=O)N1CCN(C)CC1 | human cyclin E1 N112C-3xFLAG:CDK2 | co-IP with TMT proteomics, measured: RPS5 |  | concentration not given, P46782 | reference: wild type DMSO | relative co-enrichment | 94% |
| Cc1nn(-c2cccc(N)c2)c(=O)c2cnc(Nc3ccc(N4CCNCC4)cc3)nc12 | EPHA1 (Homo sapiens, UniProt P21709) | kinase activity, inhibitor, SelectScreen kinase profiling |  |  |  | IC50 | 2060 nM |
| O=C(N/N=C/c1ccc2c(ccc[n+]2Cc2ccccc2)c1)c1cc(C(=O)N/N=C/c2ccc3c(ccc[n+]3Cc3ccccc3)c2)ncn1 | telomeric G4 DNA hybrid-2 | FRET melting |  | 1 µM, DNA 0.2 µM |  | ΔTm | 10.3 ± 4.7 °C |
| O=C(Nc1cnccc1-c1ccc([18F])cc1)c1ccnc(NC(=O)C2CC2)c1 |  | PET imaging | FVB/NJ mice, both sexes, brain | intravenous, 10 min post-injection, P-gp inhibited, with: tariquidar 15 mg/kg iv, 2 h before |  | median SUV | 0.59 |
| [2H]C([2H])([18F])Oc1cc(C(=O)OCC2CCN(CCCC)CC2)ccc1N |  | 5-HT4 receptor binding, PET | rhesus monkey (Macaca mulatta), brain hippocampus | dose not given, baseline scan, unit not given | reference: cerebellum reference region | binding potential BPND | 0.58 ± 0.12 |
| CNC(=O)C1CCCN(C(=O)C2CC3CCC2N3C(=O)[C@@H]2C[C@@H](O)CN2C(=O)NCc2cccc(Cl)c2F)C1 (mixture of isomers) | human CYP3A4 | time-dependent inhibition |  | 16.7 µM, preincubation with NADPH, with: testosterone |  | 6β-hydroxytestosterone formed | 179 ng/mL |
| CN(C)CCOc1cc(NC(=O)c2cccc(C(=O)Nc3cc(OCCN(C)C)c4ccccc4n3)n2)nc2ccccc12 | c-myc G-quadruplex DNA | FRET melting |  | 1 µM, pH 7.4, with: 60 mM potassium |  | ΔTm | 10.3 ± 0.5 K |
| C[n+]1cccc2cc(/C=N/NC(=O)c3cncc(C(=O)N/N=C/c4ccc5c(ccc[n+]5C)c4)n3)ccc21 | telomeric G4 DNA hybrid-2 | FRET melting |  | 1 µM, DNA 0.2 µM, with: duplex DNA competitor 10 µM |  | ΔTm | 20.2 ± 0.6 °C |
| c1ccc(-c2n[nH]cc2-c2ccnc3ccccc23)nc1 | orf19.4144 Candida albicans | kinase binding, MIB/MS competition | Candida albicans lysate | 1 µM | reference: DMSO | log2 fold change | -0.06 |
| C=C1CN(S(=O)(=O)c2ccc(C)cc2)CCCN(Cc2ccccc2)CCCN(S(=O)(=O)c2ccc(C)cc2)C1 | AP-2 complex subunit sigma | SILAC mass spectrometry | SUP-T1 | 10 µM, 17 h | reference: DMSO over compound (reverse) | protein level ratio | 0.19 |
| OB1c2sccc2C=NN1Cc1ccccc1 | human pancreatic chymotrypsin | enzyme activity, inhibitor |  |  |  | IC50 | > 100000 nM |
| CNS(=O)(=O)Nc1nccc(Cc2c(C)c3ccc(Oc4ncccc4F)cc3oc2=O)c1F | NCI-H2030 | cell viability |  | 7 days |  | IC50 | > 1000 nM |
| NCCOc1cc(NC(=O)c2cc(OCc3cn(Cc4ccc(C(=O)O)cc4)nn3)cc(C(=O)Nc3cc(OCCN)c4ccccc4n3)n2)nc2ccccc12 | K-ras G-quadruplex DNA | FRET melting |  | 1 µM, pH 7.4, with: 60 mM potassium |  | ΔTm | 4.8 ± 0.4 K |
| C=CC(=O)Nc1cccc(Cn2ncc3cnc(Nc4cnn(CCOC)c4)nc32)c1 | MEK2 human | binding, KINOMEscan |  | 100 nM | lower = stronger binding | percent of control | 99% |
| Fc1ccc(Nc2nc(NC3CCCCC3)c3cc(Br)ccc3n2)cc1F | β2AR/β1AR TM6 chimera | β-arrestin2 recruitment, antagonist, BRET |  |  | reference: isoprenaline maximal response | maximal inhibition | 0.7% |
| C[n+]1ccc(/C=N/NC(=O)c2ccc3ccc4ccc(C(=O)N/N=C/c5cc[n+](C)c6ccccc56)nc4c3n2)c2ccccc21 | telomeric G4 DNA hybrid-2 | FRET melting |  | 1 µM, DNA 0.2 µM, with: duplex DNA competitor 10 µM |  | ΔTm | 29.8 ± 0.8 °C |
| CN(Cc1ccc(/C=C/C(=O)NO)cc1)CC12CC3CC(CC(C3)C1)C2 | HDAC, rat | PET-CT self-blocking | rat, brain | 0-2.0 mg/kg, [11C] tracer, 6 min normalised uptake |  | change in whole-brain uptake | 10 to 40% |
| NCCOc1cc(NC(=O)c2cc(Cl)cc(C(=O)Nc3cc(OCCN)c4ccccc4n3)n2)nc2ccccc12 | K-ras G-quadruplex DNA | FRET melting |  | 1 µM, pH 7.4, with: 60 mM potassium |  | ΔTm | 25.7 ± 0.7 K |

| SMILES | target or system | assay | system | conditions | scale | quantity | result |
| --- | --- | --- | --- | --- | --- | --- | --- |
| CC(=O)[O-].O.O.O.O.[Ni+2].[O-]c1ccc(Br)cc1C=NCCN1CCOCC1 |  | FRAP |  | 160 µM |  | ferric reducing power | 36.4% |
| Cc1ncsc1-c1ccc(C(C)NC(=O)C2CC(O)CN2C(=O)C(NC(=O)CCCCCCCCCCN2CCCC(Nc3ncc(Cl)c(Nc4ccccc4S(=O)(=O)C(C)C)n3)C2)C(C)(C)C)cc1 (stereo not shown) | 22Rv1 | RNA-seq, measured: RNF135 mRNA |  | concentration not given | reference: DMSO | log2 fold change | -1.31 |
| C[n+]1cccc2cc(/C=N/NC(=O)C(=O)N/N=C/c3ccc4c(ccc[n+]4C)c3)ccc21 | telomeric G4 DNA hybrid-2 | FRET melting |  | 1 µM, DNA 0.2 µM |  | ΔTm | 3.1 ± 0.2 °C |
| O=C(Nc1cnccc1-c1ccc([18F])nc1)c1ccnc(NC(=O)C2CC2)c1 |  |  | FVB/NJ mouse, both sexes, brain | intravenous, 2 min post-injection, with: P-gp inhibitor tariquidar 15 mg/kg iv |  | SUV | 0.28 ± 0.16 |
| O=C1c2ccc3c4ccc5c6c(ccc(c7ccc(c2c37)C(=O)N1CCN1CCCCC1)c64)C(=O)N(CCN1CCCCC1)C5=O | telomerase | enzyme activity, inhibitor, TRAP | cell-free | pH 7.4 |  | IC50 | 8700 ± 400 nM |
| OB(O)c1sccc1/C=N/OCc1ccccc1 | human pancreatic chymotrypsin | enzyme activity, inhibitor |  |  |  | IC50 | > 100000 nM |
| COC1CN([C@H]2CC[C@H]([C@@]3(C)Oc4c(Cl)cc(C(=O)NCc5c(SC)cc(C)[nH]c5=O)c(C)c4O3)CC2)C1 |  | RNA-seq, measured: NBEA mouse homolog | mouse, HT-1376 xenograft, whole blood | dose not given | reference: vehicle | log2 fold change | 1.18 |
| C[C@@H]1CN(Cc2ccc(S(=O)(=O)n3cnc(C4CC4)n3)cc2)[C@@H](C)CN1c1cc(=O)n(C)c2ccc(C#N)nc12 | DGKα human | PA production, inhibitor, PILS-Nir1 biosensor | HEK293A FKBP-DGKα | with: rapamycin |  | IC50 | 3200 nM |
| Nc1ncc(-c2cc(-c3cnn(CC(F)(F)F)c3)ncc2F)nc1C(=O)NC1CNCC(F)C1 (stereo not shown) | IKK-alpha | KINOMEscan competition binding |  | 1 µM | reference: DMSO control | remaining binding | 57% |
| O=S(=O)(NCc1ccncc1)c1ccc(C2CCCCC2)cc1 | PU.1, mouse | reporter gene, inhibitor, luminescence | BV-2 PU.1 luciferase reporter | Mcule batch |  | EC50 | 10 nM |
| O=C1C2CC3CC1CC(C(=O)N1CCN(c4ccc([N+](=O)[O-])c5ncccc45)CC1)(C3)C2 | Salmonella typhimurium | Ames test | TA100 | 0.02 µg/well, without S9 |  | mean revertant colonies | 24 colonies/well |
| O=C(N/N=C/c1cc[n+](Cc2ccccc2)c2ccccc12)C(=O)N/N=C/c1cc[n+](Cc2ccccc2)c2ccccc12 | telomeric G4 DNA hybrid-2 | FRET melting |  | 1 µM, DNA 0.2 µM |  | ΔTm | 8.7 ± 0.8 °C |
| Fc1ccc(Nc2nc(NC3CCCCC3)c3cc(C(F)(F)F)ccc3n2)cc1F | β2AR/β1AR TM6 chimera | β-arrestin2 recruitment, antagonist, BRET |  |  | reference: isoprenaline maximal response | maximal inhibition | -1.9% |
| CN1CCCNC(=O)CC2(CCCCC2)CC(=O)NCCCN(C)CCCNc2cccc3c2C(=O)c2cccc(c2C3=O)NCCC1 | c-myc G-quadruplex DNA | DNA thermal stabilisation, CD melting |  | 4.5 µM, pH 7.4, with: 1.5 µM DNA, 5 mM KCl |  | ΔTm | 10.4 ± 0.9 °C |
| CCCC[C@H](NC(=O)COCCOCCNC(=O)CN1CCN(CC(=O)O)CCN(CC(=O)O)CC1)C(=O)N[C@H]1CC(=O)NCCCC[C@@H](C(N)=O)NC(=O)[C@H](Cc2c[nH]c3ccccc23)NC(=O)[C@H](CCCNC(=N)N)NC(=O)[C@@H](Cc2ccccc2)NC(=O)[C@H](Cc2c[nH]cn2)NC1=O [technetium-99m labelled] |  |  | C57 mouse, tumor | intravenous, 0.037 MBq, 4 h |  | tissue uptake | 20.3 ± 3.23 %ID/g |
| C[n+]1ccc(/C=N/NC(=O)c2cccc(C(=O)N/N=C/c3cc[n+](C)c4ccccc34)c2)c2ccccc21 | telomeric G4 DNA hybrid-2 | FRET melting |  | 1 µM, DNA 0.2 µM |  | ΔTm | 13.7 ± 0.8 °C |
| Cn1ccc2cc(-n3c(=O)[nH]c4sc5c(c4c3=O)CCCC5)ccc21 | rat rolipram binding site | radioligand binding |  | 10 µM, with: rolipram |  | inhibition | -7% |
| C=C(NC(=O)c1csc(-c2nc3c(cc2O)-c2nc(cs2)C(=O)NC(C(C)O)C(=O)NC(=C(C)OC)c2nc(cs2)C(=O)NC2c4nc(cs4)C(=O)NC(COC(=O)c4c5c6c(cccc6n4O)COC(=O)C(OC4CC(C)(O)C(N(C)C)C(C)O4)C2OC5)c2nc-3cs2)n1)C(N)=O (stereo not shown) |  |  | cynomolgus monkey, male, plasma | intravenous infusion, 9 mg/kg single dose |  | MRT(0-last) | 1.87 h |
| O=C(N/N=C/c1cc[n+](Cc2ccccc2)c2ccccc12)c1ccc2ccc(C(=O)N/N=C/c3cc[n+](Cc4ccccc4)c4ccccc34)nc2n1 | telomeric G4 DNA hybrid-2 | FRET melting |  | 1 µM, DNA 0.2 µM, with: duplex DNA competitor 10 µM |  | ΔTm | 21.2 ± 1 °C |
| O=C(C1CCc2ccccc2CC1)N1Cc2cccnc2Nc2ccc(N3CCOCC3)cc21 | IDH1 R132H | 2-HG production, RapidFire MS | MOG-G-UVW overexpressing IDH1 R132H |  |  | IC50 | 90.1 nM and 74.4 nM and 43.2 nM and 65.3 nM |

For quick reference, copied from above:
| SMILES | target or system | assay | system | conditions | scale | quantity | result |
| --- | --- | --- | --- | --- | --- | --- | --- |
| Cc1nn(-c2cccc(N)c2)c(=O)c2cnc(Nc3ccc(N4CCNCC4)cc3)nc12 | EPHA1 (Homo sapiens, UniProt P21709) | kinase activity, inhibitor, SelectScreen kinase profiling |  |  |  | IC50 | 2060 nM |
| CCCC[C@H](NC(=O)COCCOCCNC(=O)CN1CCN(CC(=O)O)CCN(CC(=O)O)CC1)C(=O)N[C@H]1CC(=O)NCCCC[C@@H](C(N)=O)NC(=O)[C@H](Cc2c[nH]c3ccccc23)NC(=O)[C@H](CCCNC(=N)N)NC(=O)[C@@H](Cc2ccccc2)NC(=O)[C@H](Cc2c[nH]cn2)NC1=O [technetium-99m labelled] |  |  | C57 mouse, tumor | intravenous, 0.037 MBq, 4 h |  | tissue uptake | 20.3 ± 3.23 %ID/g |
| O=C(N/N=C/c1ccc2c(ccc[n+]2Cc2ccccc2)c1)c1cc(C(=O)N/N=C/c2ccc3c(ccc[n+]3Cc3ccccc3)c2)ncn1 | telomeric G4 DNA hybrid-2 | FRET melting |  | 1 µM, DNA 0.2 µM |  | ΔTm | 10.3 ± 4.7 °C |
